Published values gathered from unrelated publications.
Parts stem from different laboratories: compare values within a part only. Positions count from the first letter of the parent shown.
Sequence of UniProt P49459 (whole entry, looked up): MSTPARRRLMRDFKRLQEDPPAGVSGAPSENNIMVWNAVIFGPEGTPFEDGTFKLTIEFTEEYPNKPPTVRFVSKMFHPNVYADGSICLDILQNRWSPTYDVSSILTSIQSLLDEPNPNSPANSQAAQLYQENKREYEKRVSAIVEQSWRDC
Sequence of UniProt Q96B02 (whole entry, looked up): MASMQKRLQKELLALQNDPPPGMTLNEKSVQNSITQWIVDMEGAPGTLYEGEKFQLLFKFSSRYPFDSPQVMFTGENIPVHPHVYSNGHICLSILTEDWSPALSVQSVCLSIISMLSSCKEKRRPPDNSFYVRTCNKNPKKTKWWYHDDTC
Sequence of UniProt P61077 (whole entry, looked up): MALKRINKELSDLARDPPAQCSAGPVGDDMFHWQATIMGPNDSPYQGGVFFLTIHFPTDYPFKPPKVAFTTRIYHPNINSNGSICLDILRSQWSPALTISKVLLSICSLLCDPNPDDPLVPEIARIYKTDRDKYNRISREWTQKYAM

Sample 1 — observed: peptide-MHC binding; molecule type: peptide; tested at: concentration not given
Target: HLA class I histocompatibility antigen, A alpha chain, allele A*80:01 (Homo sapiens, UniProt P04439)
Under binding, `AGGWVLWKV` is recorded as “inactive”.
`LTMNLVSDI` — result for binding: “inactive”.
`SLLFREVWK`: binding “inactive”.
`LICYQIEYI` — result for binding: “inactive”.
Under binding, `ATPHSVWVF` is recorded as “inactive”.
Under binding, `GAWCYDYTV` is recorded as “inactive”.
`YRATYSMAL`: binding “inactive”.

Sample 2 — target: CCNB1, cyclin fold, Cln2 fusion (human); technique: yeast growth competition, sequencing; sample: yeast; setting: strong parent motif; reference: not given; reading: higher = stronger binding
Parent: viral docking peptide; KGVKRKLFAEDSS; partner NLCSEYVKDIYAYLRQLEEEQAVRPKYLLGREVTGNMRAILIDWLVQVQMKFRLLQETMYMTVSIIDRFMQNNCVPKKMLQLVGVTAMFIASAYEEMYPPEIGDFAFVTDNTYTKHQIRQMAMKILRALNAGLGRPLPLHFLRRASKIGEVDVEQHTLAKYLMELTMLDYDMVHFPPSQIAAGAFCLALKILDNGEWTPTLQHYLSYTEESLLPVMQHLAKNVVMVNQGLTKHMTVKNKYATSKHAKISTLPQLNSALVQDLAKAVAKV
For `KGVKRDLFAEDSS [K6D]`, “normalised enrichment score” read 0.106.
Under “normalised enrichment score”, `KGVKRKKFAEDSS [L7K]` is recorded as 0.796.
For `KGVKRKLFAEDAS [S12A]`, “normalised enrichment score” read 2.46.
`KGVKRKAFAEDSS [L7A]`: “normalised enrichment score” -0.219.
For `KGVKRKLFAELSS [D11L]`, “normalised enrichment score” read 0.798.
`KGVKRKLFAADSS [E10A]` — result for “normalised enrichment score”: 1.21.
`KGVKRWLFAEDSS [K6W]` — result for “normalised enrichment score”: 0.11.
`KGVKKKLLAEDSS [R5K F8L]` — result for “normalised enrichment score”: 0.346.
`KGVNRKLFAEDSS [K4N]` — result for “normalised enrichment score”: 2.42.

Sample 3 — technique: yeast two-hybrid; sample: yeast; setting: mostly zero background; reference: not given; reading: higher = stronger interaction
Molecule: AMYLQENGIDCPKCKFSYALARGGCMHFHCTQCRHQFCSGCYNAFYAKNKC (RNF31 RING domain (UniProt Q96EP0))
For UBE2D3 UBC core domain (UniProt P61077): “lacZ reporter activity” read 0.
UBE2A UBC core domain (UniProt P49459) — “lacZ reporter activity”: 0.
It gave 0 for “lacZ reporter activity” (UBE2W UBC core domain (UniProt Q96B02)).

Sample 4 — technique: RNA Bind-n-Seq; molecule type: RNA; sample: in vitro; tested at: 365 nM; reference: no-protein control; reading: higher = stronger binding
Target: RNA binding protein fox-1 homolog 2, RRM domain, GST-SBP tag (RBFOX2, Homo sapiens, UniProt O43251-10, residues 100-194)
Setting: natural RNA segment, single round, ends assumed
Constant ends, left off below: GGGAGUUCUACAGUCCGACGAUC … UGGAAUUCUCGGGUGCCAA
Residues (chain): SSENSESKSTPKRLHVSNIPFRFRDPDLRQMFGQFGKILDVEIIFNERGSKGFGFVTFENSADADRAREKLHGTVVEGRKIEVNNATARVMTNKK
`UGCAAAUGAAAACAAGGGAGGGAAAGUUGUAUUAUUUCCUGCACUGGGUUACCCGUGUGUGUUAUCGUUUAAACUGUAUUCACAUAAUGUCAUUUGCCUUGCUCACUUGU`: “RBNS enrichment (R)” 0.313.
For `UACUUUGAGACUCACCUCUCAUAAAGCUUCUUUUUCACAUUACUGUUAAAGACCAGACGUUCUAGAAAAGACCCCUCCUCUCAUGAGCUCCCCCAUCCCUGCUACAGAAC`, “RBNS enrichment (R)” read 0.514.
`ACAGGAUUUGAUGUUAUUAACAUUUGUCGUCAUACCUCAUAAGUCGGUCCCUGCCUUGUCUGUCUAGGCCCAUUUGGGGCUCCCUGUGAGUGAUUCCCCUCUCUCUGCUA` — result for “RBNS enrichment (R)”: 0.478.
`CCAGAAGUUAGUGUCCGAAGACCGAAUUUUAUUUUACAGAGCUUGAAAACUCACUUCAAUGAACAAAGGGAUUCUCCAGGAUUCCAAAGUUUUGAAGUCAUCUUAGCUUU`: “RBNS enrichment (R)” 0.472.
`UUCCAGAUGAGUGUUACAUAGAUUCUUUGAAUUUAGUAUAAAAGUACUGAGAAUUAAGUUUGUACUUCCAUAAGCUUGGAUUUUAAACACUGAUAGUAUCUCAUGAGUAA`: “RBNS enrichment (R)” 0.401.
Under “RBNS enrichment (R)”, `AAACUACUGUGCCUUAACGUGUUUCUUAAACUUUUGUAGUAAAUGAACAUUUGAAAUCCAUUUUGAUAAACCUGCUGUUAAUGUUUUUUCCCCCCUUGUGAAUGUUUUCU` is recorded as 4.1.
`UGGCCUCUCUCGCUGCCAGGGCCCUUGUCAGAGCAGCCAGGCUGGACAGACGGCCUCCCUCCUCUCCAUCUGACCGGCACCUGCUGCUUCGGGGCUUAGGCCACCGCUCC` — result for “RBNS enrichment (R)”: 0.362.
`AAACUGUCUGGUGUUGGGAAGGGAUGAGUUCUUGUAAAUCUGUAAAUAGCUUCAAUAAGAUGUAAAGUUUUACAAAUUCAAGGUGAUAUUAACACUUGUGUAGAACAUUC`: “RBNS enrichment (R)” 0.45.
